# Results collected from several papers.
# Protocols differ between the studies behind these lines. ± marks the error that the study gave.
# Technique: steady-state kinetics
# B1: enzyme (Phocaeicola vulgatus, UniProt A6KWY5); chain MKAIQITAPSEMKVVDIEKPVLEPGEVLVKIKYVGFCGSDLNTFLGRNPMVKLPVIPGHEVGAVIEAVGKDVPDSLKPGMSVTVNPYTNCGKCASCRNGRVNACEHNETLGVQRNGAMCEYIALPWSKIIPAHRIPPRDCALIEPMSVGFHAVSRAQVTDIDIVMVIGCGMIGMGAIVRSALRGATVIAVDLDDEKLELAKRIGAHHTINSMTENVHECLTKITEGLGPDVVIEAVGSPATYVMAVNEVGFTGRVVCIGYAKSEVSFQTKYFVQKELDIRGSRNALPTDFRAVIRYMEQGTCPKNELISKVVKPEAAIQAMKEWAAAPGKVFRILVEFD
# B2: enzyme (Triticum aestivum, UniProt A0A6J4BJG4); chain MPATQLPAGEAWDRRRELQAFDDTKAGVKGLVDAGVTALPPIFRHSPESLEGITSSNHVAGAIPTVDLAAPRREDAVALVRHAAGTVGFFQVVNHGVPAELMAGMLEGVRRFNEGPAEAKQAIYSRDQARKVRFASNFDLFSSAAANWRDTLFFHLAPDPAPSEELPEAVRDVVTEYGHAVTKVGLSVLELLSESLGLSSDHLRDMDCAENLNAVCQYYPPCPEPYLTWGTKRHTDPGFLTVLLQDGMGGLQVLVDGKTWVDVPPVPGAFIINIGDLLQLVSNDQFRSVEHRVLANKSKDTARVSVASFFNTNIERSTRLYGPITDGRNPPIYRSVTAREFIATFNRIGLDGRSLDQYRLDRDTPTPAVEGCE
# B3: Tat (Mus musculus, UniProt Q8QZR1); chain WNVRPSDMSNKTFNPIRAIVDNMKVKPNPNKTVISLSIGDPTVFGNLPTDPEVTQAMKDALDSGKYNGYAPSIGYLSSREEVASYYHCPEAPLEAKDVILTSGCSQAIELCLAVLANPGQNILIPRPGFSLYRTLAESMGIEVKLYNLLPEKSWEIDLKQLESLIDEKTACLVVNNPSNPCGSVFSKRHLQKILAVAERQCVPILADEIYGDMVFSDCKYEPMATLSTNVPILSCGGLAKRWLVPGWRLGWILIHDRRDIFGNEIRDGLVKLSQRILGPCTIVQGALKSILQRTPQEFYQDTLSFLKSNADLCYGALSAIPGLQPVRPSGAMYLMVGIEMEHFPEFENDVEFTERLIAEQSVHCLPATCFEYPNFFRVVITVPEVMMLEACSRIQEFCEQHY
# B4: Sua5 (Pyrococcus abyssi, UniProt Q9UYB2); chain MTIIINVRERIEEWKIRIAAGFIREGKLVAFPTETVYGLGANALDENAVKRIFEAKGRPADNPLIIHIASFEQLEVLAKEIPEEAEMLAKRFWPGPLTLVLPKSEVVPRVITGGLDTVAVRMPAHEIALKLIELSERPIAAPSANISGKPSPTSAHHVAEDFYGKIECIIDGGETRIGVESTVIDLTEWPPVLLRPGGLPLEEIEKVIGEIRIHPAVYGKSVDTAKAPGMKYRHYAPSAEVIVVEGPRDKVRRKIEELIAKFKEEGKKVGVIGSGSYDADEVFYLGDTVEEIARNLFKALRHMDRTGVDVILAEGVEEKGLGLAVMNRLRKASGYRIIKV
# B5: LYPLA1 (Homo sapiens, UniProt O75608); chain MCGNNMSTPLPAIVPAARKATAAVIFLHGLGDTGHGWAEAFAGIRSSHIKYICPHAPVRPVTLNMNVAMPSWFDIIGLSPDSQEDESGIKQAAENIKALIDQEVKNGIPSNRIILGGFSQGGALSLYTALTTQQKLAGVTALSCWLPLRASFPQGPIGGANRDISILQCHGDCDPLVPLMFGSLTVEKLKTLVNPANVTFKTYEGMMHSSCQQEMMDVKQFIDKLLPPID
# B6: enzyme A178R/D177A/M179H/P184R (Levilactobacillus brevis, UniProt Q03Q85); chain MKVTVVGCTHAGTFAIKQILAEHPDAEVTVYERNDVISFLSCGIALYLGGKVADPQGLFYSSPEELQKLGANVQMNHNVLAIDPDQKTVTVEDLTNHAQTTESYDKLVMTSGSWPIVPKIPGIDSDRVKLCKNWAHAQALIEDAKEAKRITVIGAGYIGAELAEAYSTTGHDVTLIARHARVMRKYFDADFTDVIEQDYRDHGVQLALGETVESFTDSATGLTIKTDKNSYETDLAILCIGFRPNTDLLKGKVDMAPNGAIITDDYMRSSNPDIFAAGDSAAVHYNPTHQNAYIPLATNAVRQGILVGKNLVKPTVKYMGTQSSSGLALYDRTIVSTGLTLAAAKQQGLNAEQVIVEDNYRPEFMPSTEPVLMSLVFDPDTHRILGGALMSKYDVSQSANTLSVCIQNENTIDDLAMVDMLFQPNFDRPFNYLNILAQAAQAKVAQSVNA
# B7: protein (Streptomyces coelicolor, UniProt Q9K464); chain MAAYLCAPAVIHGEHSVETREIVEEVRGRHPHAPWAPRIDGIAASTGIESRGWMLPLEAAVAPGGGGDLGAAREALVRDGFTEQDANRAIAALKAVPASQTVQERTAPAWEAVQAYGERAARGALQIAGLDVADVDCLITSNSTTPALPGLDVALANRLPLRGDTMLLPATQWACVAGTRSLALAADLVAADPDRVVLVVISEALSTTYQPADDTLESLIVRLLFADTAVAAVVTGRPRPESVLRLDAAWHHTLPGTRDLHRLETRADGTHFVMDRRGPRAVQETVTAMWEWLRVRYEDDPSSWHPDVLLAHPGGTRVLEYMEQTMPDEWPSGLLSYSRDSYTSGNRGGAAVFDILRRAHDAGQKTGSRAVLYAAAPGLTATALEGEWL
# B8: Cop6 (Coprinopsis cinerea, UniProt A8NCK5); chain MPAALPYNVSRDNKWDIKKIIQDFFKRCDVPYQVIPYDTELWNACLKRAKEKGYPVEPDSPMSLYRSFKVGVVITRTSYGHIQDYEILIWVATFTAFVTYADDAFQEDIQHLHSFARTFLQNEKHEHPVLEAFAQFLRESSIRFSHFVANTVVSSALRFMMSIALEFEGQNVSVSTEAREYPGYIRILSGLSDIYALFAFPMDLPRSTYIQAFPEQIDYINGTNDLLSFYKEELDCETVNFISAAATSQQVSKLEVLRNAAEKAAYSYDVVVNVLKPYPEALAAWKSFARGFCYFHTSSPRYRLGEMFHDFEHDLVCKCASCTEI
# B9: sacB S173G (Priestia megaterium, UniProt D5DC07); chain KGNDSKDFNNSYGISHITRDNMVKIPQQQNSDQFKVPAFDESTIKNIASAKGKNASGNTIDLDVWDSWPLQNADGTVATYHGYQIVFALAGDPKDSNDTSVYLFYKKAGDKSIDSWKNAGRVFKDSDKFVPNDPHLKNQTQEWGGSGTLTKDGKVRLFYTDYSGKQYGKQTLTTAQVNMSQPNDNTLKVDGVEDYKSIFDGDGKIYQTVQQFIDEGGYDTGDNHTLRDPHYIEDNGHKYLVFEANTGTEDGYQGEDSLYNRAYYGGNNPFFQSEKKKLLEGSNKEKASLANGALGIIELNDDYTLKKVMKPLITSNTVTDEIERANIFKKDGKWYLFTDSRGSKMTIDGIGQDDVYMLGYVSNTLTGKYKPLNDTGLVLHMDLDPNDKTFTYSHFAVPQTKGDNVVITSYMTNRGFYEDNHSTFAPSFLVNIDGSKTSVVKDRVLEQGQLTVDED
# Sequence of UniProt P27306 (whole entry, looked up): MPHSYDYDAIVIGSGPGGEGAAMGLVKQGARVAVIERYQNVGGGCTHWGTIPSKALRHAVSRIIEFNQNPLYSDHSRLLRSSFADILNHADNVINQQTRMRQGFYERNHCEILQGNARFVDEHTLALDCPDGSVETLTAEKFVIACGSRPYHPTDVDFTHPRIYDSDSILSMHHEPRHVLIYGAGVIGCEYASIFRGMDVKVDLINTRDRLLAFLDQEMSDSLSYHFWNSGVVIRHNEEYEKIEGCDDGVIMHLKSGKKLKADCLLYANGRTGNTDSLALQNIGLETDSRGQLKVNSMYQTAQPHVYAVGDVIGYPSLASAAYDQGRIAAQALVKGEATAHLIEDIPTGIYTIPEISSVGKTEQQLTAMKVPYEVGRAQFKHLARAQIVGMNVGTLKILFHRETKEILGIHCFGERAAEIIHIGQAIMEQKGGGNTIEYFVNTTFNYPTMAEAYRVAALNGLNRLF
# Sequence of UniProt P45370 (whole entry, looked up): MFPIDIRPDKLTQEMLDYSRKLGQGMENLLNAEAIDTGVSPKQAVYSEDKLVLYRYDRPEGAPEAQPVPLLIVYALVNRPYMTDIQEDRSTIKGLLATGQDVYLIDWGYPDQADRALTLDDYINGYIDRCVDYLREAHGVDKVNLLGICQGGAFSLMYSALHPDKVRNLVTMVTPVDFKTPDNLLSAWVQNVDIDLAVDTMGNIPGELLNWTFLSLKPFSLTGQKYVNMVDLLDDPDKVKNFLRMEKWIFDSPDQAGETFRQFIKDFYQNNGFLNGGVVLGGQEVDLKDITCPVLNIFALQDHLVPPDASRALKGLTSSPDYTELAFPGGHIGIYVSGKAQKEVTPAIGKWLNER
# Sequence of UniProt P10724 (whole entry, looked up): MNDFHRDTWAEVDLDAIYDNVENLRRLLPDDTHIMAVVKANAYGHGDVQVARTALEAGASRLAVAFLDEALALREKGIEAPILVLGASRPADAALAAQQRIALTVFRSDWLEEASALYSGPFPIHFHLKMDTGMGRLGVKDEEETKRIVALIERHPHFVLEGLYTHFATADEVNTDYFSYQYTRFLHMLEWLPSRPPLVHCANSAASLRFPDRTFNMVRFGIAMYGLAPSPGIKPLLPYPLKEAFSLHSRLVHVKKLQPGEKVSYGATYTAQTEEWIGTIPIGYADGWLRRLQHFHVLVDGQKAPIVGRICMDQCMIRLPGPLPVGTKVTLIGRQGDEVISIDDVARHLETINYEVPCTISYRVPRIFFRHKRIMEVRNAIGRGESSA
# Sequence of UniProt Q29437 (whole entry, looked up): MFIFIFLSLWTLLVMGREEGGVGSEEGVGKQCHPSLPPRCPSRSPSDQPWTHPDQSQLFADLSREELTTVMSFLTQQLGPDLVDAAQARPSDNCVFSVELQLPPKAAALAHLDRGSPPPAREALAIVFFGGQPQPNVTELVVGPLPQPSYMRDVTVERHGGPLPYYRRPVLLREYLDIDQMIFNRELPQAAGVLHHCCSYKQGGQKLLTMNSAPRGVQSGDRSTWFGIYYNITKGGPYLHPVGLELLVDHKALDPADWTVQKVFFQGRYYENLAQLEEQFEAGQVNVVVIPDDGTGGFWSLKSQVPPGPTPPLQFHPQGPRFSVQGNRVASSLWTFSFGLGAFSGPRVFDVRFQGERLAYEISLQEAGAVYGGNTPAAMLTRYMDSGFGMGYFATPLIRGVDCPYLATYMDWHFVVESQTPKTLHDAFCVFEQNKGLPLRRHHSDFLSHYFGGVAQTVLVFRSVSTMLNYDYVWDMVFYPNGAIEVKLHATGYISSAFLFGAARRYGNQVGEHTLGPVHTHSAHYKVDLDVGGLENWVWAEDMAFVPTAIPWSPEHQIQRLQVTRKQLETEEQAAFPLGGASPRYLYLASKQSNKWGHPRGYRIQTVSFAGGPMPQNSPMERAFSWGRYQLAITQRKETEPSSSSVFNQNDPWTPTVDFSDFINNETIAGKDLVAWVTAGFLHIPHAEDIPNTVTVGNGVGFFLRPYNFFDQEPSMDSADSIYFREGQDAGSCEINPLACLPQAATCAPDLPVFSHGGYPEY
Substance,substrate,setting,kcat [s⁻¹]
B1 (enzyme),O=C(O)[C@@H](O)[C@H](O)[C@H](O)C(=O)CO,"pH 7, 30 °C",90 ± 0.6
"Plasma amine oxidase (Bos taurus, UniProt Q29437)",COc1ccc2cc(CN)ccc2c1,"pH 7.2, 30 °C",1.12 ± 0.04
"HCT (Coleus scutellarioides, UniProt E8ZAP2)",O=C(O)C1=C[C@@H](O)[C@@H](O)[C@H](O)C1,"pH 8, pseudo-first-order, with: p-coumaroyl CoA",30.1 ± 0.7
"protein (Allochromatium vinosum, UniProt P45370)",C[C@@H](O)CC(=O)SCCNC(=O)CCNC(=O)[C@H](O)C(C)(C)COP(=O)(O)OP(=O)(O)OC[C@H]1O[C@@H](n2cnc3c(N)ncnc32)[C@H](O)[C@@H]1OP(=O)(O)O,"pH 7.8, 30 °C",508
B2 (enzyme),O=C1[C@@H](O[C@@H]2O[C@H](CO)[C@@H](O)[C@H](O)[C@H]2O)Oc2ccccc2N1O,"pH 7.2, 30 °C",0.508
"enzyme (Limosilactobacillus reuteri, UniProt Q5SBN3)",OC[C@H]1O[C@@](CO)(O[C@H]2O[C@H](CO)[C@@H](O)[C@H](O)[C@H]2O)[C@@H](O)[C@@H]1O,"pH 4.7, 37 °C",271 ± 3.1
B3 (Tat),O=C(O)C(=O)Cc1ccccc1,"pH 7, 38 °C, with: PLP",2.67 ± 0.167
"alanine racemase (Geobacillus stearothermophilus, UniProt P10724)",C[C@@H](N)C(=O)O,"pH 9, room temperature, with: NAD+ 10 mM",3500
"sthA (Escherichia coli, UniProt P27306)",NC(=O)C1=CN([C@@H]2O[C@H](COP(=O)(O)OP(=O)(O)OC[C@H]3O[C@@H](n4cnc5c(N)ncnc54)[C@H](OP(=O)(O)O)[C@@H]3O)[C@@H](O)[C@H]2O)C=CC1,"pH 7.5, 37 °C, NaCl 150 mM, with: thio-NAD+ 200 µM",30 ± 1
B4 (Sua5),Nc1ncnc2c1ncn2[C@@H]1O[C@H](COP(=O)(O)OP(=O)(O)OP(=O)(O)O)[C@@H](O)[C@H]1O,"pH 8, 50 °C, with: L-threonine, ATP 5–500 µM, MnCl2 1 mM, MgCl2 10 mM",0.029 ± 0.001
B5 (LYPLA1),CN(C)c1ccc(/N=N/c2ccc(C(=O)NCCCn3cc(CCCCCCCCCCCCCCCC(=O)OC[C@H](NC(=O)c4cc5ccc(O)cc5oc4=O)C(=O)N4CCOCC4)nn3)cc2)cc1,"pH 7.4, 37 °C",0.046 ± 0.004
B6 (enzyme A178R/D177A/M179H/P184R),NC(=O)C1=CN([C@@H]2O[C@H](COP(=O)(O)OP(=O)(O)OC[C@H]3O[C@@H](n4cnc5c(N)ncnc54)[C@H](O)[C@@H]3O)[C@@H](O)[C@H]2O)C=CC1,"pH 7.5, 37 °C, per site",39 ± 6
B7 (protein),CC(=O)CC(=O)SCCNC(=O)CCNC(=O)[C@H](O)C(C)(C)COP(=O)(O)OP(=O)(O)OC[C@H]1O[C@@H](n2cnc3c(N)ncnc32)[C@H](O)[C@@H]1OP(=O)(O)O,"pH 7.8, 30 °C, NaCl 150 mM, with: methylmalonyl-CoA 1.0 mM",0.0485 ± 0.00133
B8 (Cop6),CC(C)=CCC/C(C)=C/CC/C(C)=C/CO[P@@](=O)(O)OP(=O)(O)O,"pH 8, 30 °C, with: MgCl2 10 mM",0.67 ± 0.007
"CYP2C9 (Homo sapiens, UniProt P11712)",Cc1ccc(Nc2c(F)cccc2Cl)c(CC(=O)O)c1,"pH 7.4, Hill model, CYP2C9, metabolite, not purified",0.000603
B9 (sacB S173G),OC[C@H]1O[C@@](CO)(O[C@H]2O[C@H](CO)[C@@H](O)[C@H](O)[C@H]2O)[C@@H](O)[C@@H]1O,pH 6.6,8.7 ± 0.4

# Repeated from above:
Substance,substrate,setting,kcat [s⁻¹]
"HCT (Coleus scutellarioides, UniProt E8ZAP2)",O=C(O)C1=C[C@@H](O)[C@@H](O)[C@H](O)C1,"pH 8, pseudo-first-order, with: p-coumaroyl CoA",30.1 ± 0.7
"protein (Allochromatium vinosum, UniProt P45370)",C[C@@H](O)CC(=O)SCCNC(=O)CCNC(=O)[C@H](O)C(C)(C)COP(=O)(O)OP(=O)(O)OC[C@H]1O[C@@H](n2cnc3c(N)ncnc32)[C@H](O)[C@@H]1OP(=O)(O)O,"pH 7.8, 30 °C",508
